Assay results pooled from the literature.
A part holds a random share of what one study measured. Changes are numbered by the printed parent chain.
Sequence of UniProt O00444 (whole entry, looked up): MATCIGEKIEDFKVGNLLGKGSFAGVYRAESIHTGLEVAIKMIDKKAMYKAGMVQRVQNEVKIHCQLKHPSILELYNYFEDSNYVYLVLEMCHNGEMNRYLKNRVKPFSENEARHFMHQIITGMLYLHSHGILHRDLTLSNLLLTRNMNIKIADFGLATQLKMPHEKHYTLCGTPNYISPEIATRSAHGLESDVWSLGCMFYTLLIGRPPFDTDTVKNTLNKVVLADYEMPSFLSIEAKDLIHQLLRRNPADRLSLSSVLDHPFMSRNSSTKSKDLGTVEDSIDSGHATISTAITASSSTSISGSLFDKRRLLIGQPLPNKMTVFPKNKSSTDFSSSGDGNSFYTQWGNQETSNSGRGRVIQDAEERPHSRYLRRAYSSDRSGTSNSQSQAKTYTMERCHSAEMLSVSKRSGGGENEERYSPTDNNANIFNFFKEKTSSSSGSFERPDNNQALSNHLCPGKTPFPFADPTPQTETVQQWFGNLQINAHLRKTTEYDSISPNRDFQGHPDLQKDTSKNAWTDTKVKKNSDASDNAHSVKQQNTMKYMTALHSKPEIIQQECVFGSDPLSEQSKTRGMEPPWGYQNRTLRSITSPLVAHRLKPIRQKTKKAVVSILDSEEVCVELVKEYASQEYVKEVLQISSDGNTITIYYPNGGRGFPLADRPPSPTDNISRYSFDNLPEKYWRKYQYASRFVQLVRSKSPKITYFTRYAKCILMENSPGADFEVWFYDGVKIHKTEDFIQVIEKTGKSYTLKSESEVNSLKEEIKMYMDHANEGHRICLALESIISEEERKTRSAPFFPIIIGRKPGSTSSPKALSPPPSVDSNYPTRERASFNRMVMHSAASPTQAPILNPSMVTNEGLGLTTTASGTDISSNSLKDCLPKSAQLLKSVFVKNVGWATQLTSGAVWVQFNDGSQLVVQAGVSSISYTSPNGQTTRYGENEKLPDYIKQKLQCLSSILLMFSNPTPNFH

Block 1 — method: RNA Bind-n-Seq; molecule type: RNA; sample: in vitro; tested at: 200 nM; notes: whole 134-nt RNA, ends assumed; together with: 150 mM KCl; relative to: input library; direction: higher = stronger binding; endpoint: log2 enrichment
Target: Ras GTPase-activating protein-binding protein 1, full length (G3BP1, Homo sapiens, UniProt Q13283)
Sequence of UniProt Q13283 (whole entry, looked up): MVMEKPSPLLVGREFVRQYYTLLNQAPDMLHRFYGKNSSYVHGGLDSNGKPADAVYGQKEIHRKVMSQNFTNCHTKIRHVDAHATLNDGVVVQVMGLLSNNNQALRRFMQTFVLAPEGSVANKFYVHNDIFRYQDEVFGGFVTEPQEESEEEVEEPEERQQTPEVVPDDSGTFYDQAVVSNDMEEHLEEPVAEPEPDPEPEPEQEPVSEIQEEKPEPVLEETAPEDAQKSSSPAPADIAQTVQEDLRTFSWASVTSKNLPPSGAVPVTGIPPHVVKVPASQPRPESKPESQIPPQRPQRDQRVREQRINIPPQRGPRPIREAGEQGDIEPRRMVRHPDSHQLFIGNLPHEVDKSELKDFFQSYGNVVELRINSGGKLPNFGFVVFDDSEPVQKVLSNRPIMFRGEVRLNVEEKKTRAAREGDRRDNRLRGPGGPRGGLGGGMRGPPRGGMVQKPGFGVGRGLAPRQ
All sequences stand within: GGGAGUUCUACAGUCCGACGAUC … UGGAAUUCUCGGGUGUCAAGG
GCAGGAAGUAAAAACAAAUGGAAAUGCUUCGGAUAGUGGCAGGGGUGGGGGUUGCUAAGGAAAGGGUGGGAUGGGACUGGGUAAAGAGUU: 1.13
UAACUUUAGAGGAGGAUCUGAUGGAUAUGGCAGUGGAAGUGGAUUUGGGGAUGGCUAUAAUGGGUAUGGAGGAGGACCUGGAGGUGGCAA: 0.192
UCCUGUGCUACACAUCGUAUGUACCGAAUCGGGGUGGGGAAAAAGGGGUUUUUUUGGGGAAAGUAUUAUGUUACGCCGUUCGGAUCUGCA: 0.679
UGGGAGGUGGAUUUUGUUUAUUUUUUUAGCUCAUUUCCAGGCGUGGGAAUUUUUUUUUAAUAUGUGUCAUGAAUAAAGUUGUUUUUGAAA: 0.127
AGUCCUGUGCUACACAUCGUAUGUACCGAAUCGGGGUGGGGAAAAAAAGGGGUGGGGAAAGUAUUAUGUUACGCCGUUCGGAUCUGCACU: 0.247
AAGUCCUGUGCUACACAUCGUAUGUACCGAAUCGGAGGAAAAAAAGGAAAAAAAGGAAAGUAUUAUGUUACGCCGUUCGGAUCUGCACUU: -1.12
UAACUUUAGAGGAGGAUCUGAUGGAUAUGGCAGUGGACGUGGAUUUGGGGAUGGCUAUAAUGGGUAUGGCGGAGGACCUGGAGGUGGCAA: 0.305
UAACUUUAGAGGAGGAUCUGAUGGAUAUGGCAGUGGACGUGGAUUUGGGGAUGGCUAUAAUGGGUAUGGAGAAGGACCUGGAGGUGGCAA: 0.305

Block 2 — Substitution: P36Y; method: DHFR PCA, deep sequencing; sample: yeast; relative to: wild-type fitted maximum; direction: higher = stronger binding; endpoint: relative binding score
Target: ABI1, truncated, D143A, DHFR fusion (Arabidopsis thaliana)
Notes: methotrexate growth selection, single substitutions
Starting sequence: PYL1, truncated, DHFR fusion (Arabidopsis thaliana); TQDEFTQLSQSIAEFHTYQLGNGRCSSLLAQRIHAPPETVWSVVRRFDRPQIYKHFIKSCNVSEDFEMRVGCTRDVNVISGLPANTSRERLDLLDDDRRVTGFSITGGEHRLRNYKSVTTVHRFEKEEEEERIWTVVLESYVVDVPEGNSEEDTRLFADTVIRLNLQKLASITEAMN; partner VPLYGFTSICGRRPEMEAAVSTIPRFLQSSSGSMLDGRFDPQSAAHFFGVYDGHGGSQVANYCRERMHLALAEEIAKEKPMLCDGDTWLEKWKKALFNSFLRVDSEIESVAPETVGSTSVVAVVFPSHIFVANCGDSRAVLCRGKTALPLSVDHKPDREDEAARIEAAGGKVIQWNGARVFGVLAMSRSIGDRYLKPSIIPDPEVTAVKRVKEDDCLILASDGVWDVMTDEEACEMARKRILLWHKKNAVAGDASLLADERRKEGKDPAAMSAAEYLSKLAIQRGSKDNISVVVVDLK
together with: (+)-ABA 200 µM: 81.4%
together with: (+)-ABA 1.4 µM: 13.5%
together with: (+)-ABA 2500 µM: 94.4%
together with: (+)-ABA 0.39 µM: 5.46%
together with: (+)-ABA 4.8 µM: 23.5%
together with: (+)-ABA 17 µM: 51.6%

Single results of other studies
P1: PafA, mature enzyme, eGFP fusion (Elizabethkingia meningoseptica, UniProt Q9KJX5); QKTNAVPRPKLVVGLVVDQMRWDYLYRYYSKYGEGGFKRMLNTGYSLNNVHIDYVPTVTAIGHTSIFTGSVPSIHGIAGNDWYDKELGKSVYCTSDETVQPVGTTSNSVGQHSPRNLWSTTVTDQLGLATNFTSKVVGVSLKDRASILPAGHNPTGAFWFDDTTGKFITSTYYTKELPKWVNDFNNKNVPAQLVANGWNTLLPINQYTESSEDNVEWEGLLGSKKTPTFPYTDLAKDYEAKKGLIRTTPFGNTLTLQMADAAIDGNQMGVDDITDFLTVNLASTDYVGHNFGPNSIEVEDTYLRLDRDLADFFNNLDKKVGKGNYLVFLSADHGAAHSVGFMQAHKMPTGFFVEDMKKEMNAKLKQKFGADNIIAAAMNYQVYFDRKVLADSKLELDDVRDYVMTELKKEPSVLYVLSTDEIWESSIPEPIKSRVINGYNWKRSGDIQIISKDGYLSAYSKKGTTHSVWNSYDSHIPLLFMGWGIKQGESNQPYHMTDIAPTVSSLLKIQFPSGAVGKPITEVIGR
Cn1cncc1[C@@](O)(COc1ccc(C#N)cc1-c1ccc(OC(F)(F)F)cc1)c1ccc(C#N)cc1 — remaining binding (PLK4 (Homo sapiens, UniProt O00444); cell-free assay, competition with immobilised ligand; 1 µM): 84%
P1 N185V — phosphate dissociation constant (inorganic phosphate, free oxyanion; microfluidic competitive inhibition; in vitro, cell-free expressed; not given, derived from inhibition constants, unchanged parent 615000 nM; lower = stronger binding): 475 µM

Repeated from above (block 2):
together with: (+)-ABA 200 µM: 81.4%
together with: (+)-ABA 1.4 µM: 13.5%
together with: (+)-ABA 2500 µM: 94.4%
